Measurements from different studies.
Protocols differ between the studies behind these lines. ± marks the error that the study gave.

Sequences of proteins named here, by UniProt entry; tags and fusion partners are left off.
UniProt Q16539, whole entry: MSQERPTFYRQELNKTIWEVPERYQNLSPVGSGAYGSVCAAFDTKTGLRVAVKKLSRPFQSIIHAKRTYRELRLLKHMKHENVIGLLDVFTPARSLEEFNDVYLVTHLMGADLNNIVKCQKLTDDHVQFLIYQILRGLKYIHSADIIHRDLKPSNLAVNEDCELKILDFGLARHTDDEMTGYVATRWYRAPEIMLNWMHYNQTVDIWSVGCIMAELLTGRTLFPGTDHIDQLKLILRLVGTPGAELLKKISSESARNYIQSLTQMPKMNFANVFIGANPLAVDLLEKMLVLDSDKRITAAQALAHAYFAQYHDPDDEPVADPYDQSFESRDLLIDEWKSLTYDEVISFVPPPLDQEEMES

Compound | target or system | assay | test system | setting | scale | endpoint | result
CC(C)C[C@H](NC(=O)[C@H](C)NC(=O)[C@H](CCCNC(=N)N)NC(=O)[C@H](CCCNC(=N)N)NC(=O)[C@H](CCCNC(=N)N)NC(=O)[C@H](C)NC(=O)[C@H](CC(C)C)NC(=O)[C@H](CCCNC(=N)N)NC(=O)[C@H](CO)NC(=O)[C@H](CCCCN)NC(=O)[C@H](CO)NC(=O)Cn1cc(COC(=O)[C@]2(C)C=C(C(=O)OC(C)(C)C)C(=O)CC2)nn1)C(=O)O | MAPK14 (Homo sapiens, UniProt Q16539) | enzyme activity, inhibitor, D-SENSOR | – | 0.01016 µM | – | normalized kinase activity | 0.963
CCCCNC(=O)C(=O)NCCCC/C=C\CCCCCCC1=NOS(=O)N1 (centres unmarked) | – | vasorelaxation, isometric tension | bovine coronary artery rings | added: U46619 precontraction | – | EC50 | 360 nM
CCOC(=O)c1c(-c2ccc(Cl)cc2Cl)n(-c2nc(-c3ccc(Cl)cc3)c3c(NC(=O)c4ccccc4)nnc-3[nH]2)[nH]c1=O | HCT-15 | SRB | – | 10 µM | relative to: untreated | cell growth | -29.7%
CC(=O)NCCCC[C@H](NC(=O)[C@H](CCCNC(=N)N)NC(=O)[C@H](C)NC(=O)[C@@H](NC(=O)[C@H](CCC(N)=O)NC(=O)[C@H](CCCCN)NC(=O)[C@@H](NC(=O)[C@H](CCCNC(=N)N)NC(=O)[C@H](C)N)[C@@H](C)O)[C@@H](C)O)C(=O)N[C@@H](CO)C(=O)N[C@H](C(=O)NCC(=O)O)[C@@H](C)O | human MORF PHD1/2 F287A | binding, NMR titration | – | 298 K | – | interaction | inhibited
Cc1c(Cn2c(C)nc3c(C(=O)O)cc(N4CCOCC4)cc32)cccc1C(F)(F)F | C4-2B | no effect, Western blot | – | 5 µM | – | CDK6 protein level | no effect
CC[C@H](C)[C@H](NC(=O)[C@@H]1CCCN1C(=O)[C@H](Cc1c[nH]cn1)NC(=O)[C@@H](NC(=O)[C@H](Cc1ccc(O)c([125I])c1)NC(=O)[C@@H](NC(=O)[C@H](CCCNC(=N)N)NC(=O)CNC)C(C)C)[C@@H](C)CC)C(=O)O | AT2 receptor, human | saturation binding | H295R | concentration not given, added: losartan 10 µM | – | binding | not detected
C=C(C)C(=O)Nc1ccc(-c2c(-c3ccc(Oc4nccc(C)n4)c(F)c3)c3c(N)ncnc3n2C)cc1 | EFM-19 | cell growth, CellTiter-Glo | – | 120 h, unit not given | relative to: untreated growth rate, higher = stronger inhibition | area over GR curve | 0.307
N#Cc1c(-c2ccc(Cl)cc2Cl)n(-c2nc(-c3ccc(Cl)cc3)c3c(NC(=O)c4ccccc4)nnc-3[nH]2)[nH]c1=O | SW-620 | SRB | – | 10 µM | relative to: untreated | cell growth | 22.9%
CC/C=C\C/C=C\CCC/C=C/C=C/C=C\CCCC(=O)O | NALM-6 | flow cytometry | – | 37.5 µM, 24 h | – | G1 phase cells | 47.6%
CC(C)CC(NC(=O)C(Cc1ccccc1)NC(=O)c1cnc(C(=O)NC(Cc2ccccc2)C(=O)NC(CC(C)C)B(O)O)cn1)B(O)O (centres unmarked) | proteasome (human) | trypsin-like activity, inhibitor, Proteasome-Glo | MM1.S | 24 h | – | IC50 | > 18 nM
CN(C)CCNC(=O)c1cccc2ccc(-c3ccc(-c4ccccc4)cc3)nc12 | MDA-MB-468 | cytotoxicity, MTT | – | 3 h exposure, 96 h total | – | IC50 | 5100 ± 2300 nM

A few entries again:
Compound | target or system | assay | test system | setting | scale | endpoint | result
CCOC(=O)c1c(-c2ccc(Cl)cc2Cl)n(-c2nc(-c3ccc(Cl)cc3)c3c(NC(=O)c4ccccc4)nnc-3[nH]2)[nH]c1=O | HCT-15 | SRB | – | 10 µM | relative to: untreated | cell growth | -29.7%
